Measured values gathered from unrelated publications.
Each numbered part is a random draw from the data of one study; scales do not carry over between parts. Substitutions count along the parent as printed.

Sample 1 — technique: DHFR PCA, deep sequencing; sample: yeast; with: (+)-ABA 17 µM; relative to: wild-type fitted maximum; reading: higher = stronger binding
Target: ABI1, truncated, D143A, DHFR fusion (Arabidopsis thaliana)
Setting: methotrexate growth selection, single substitutions
Starting sequence: PYL1, truncated, DHFR fusion (Arabidopsis thaliana); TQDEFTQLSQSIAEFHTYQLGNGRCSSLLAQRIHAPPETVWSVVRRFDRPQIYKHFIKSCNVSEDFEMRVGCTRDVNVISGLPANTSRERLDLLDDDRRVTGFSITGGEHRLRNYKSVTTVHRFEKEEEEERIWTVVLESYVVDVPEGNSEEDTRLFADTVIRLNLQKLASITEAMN; partner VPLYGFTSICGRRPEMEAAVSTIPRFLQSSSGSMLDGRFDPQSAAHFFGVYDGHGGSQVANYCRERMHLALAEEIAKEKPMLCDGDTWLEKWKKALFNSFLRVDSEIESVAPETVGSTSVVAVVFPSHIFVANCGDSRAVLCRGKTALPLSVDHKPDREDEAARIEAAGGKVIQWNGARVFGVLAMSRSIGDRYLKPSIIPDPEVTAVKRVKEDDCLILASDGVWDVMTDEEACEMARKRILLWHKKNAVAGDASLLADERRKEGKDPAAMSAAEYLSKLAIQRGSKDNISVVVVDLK
| Substitution | relative binding score [%] |
| --- | --- |
| A175W | 66.4 |
| P36I | 34.5 |
| L164P | 1.41 |
| P83F | 12.8 |
| D97A | 84.7 |
| G102Y | 0.354 |
| I162L | 26.3 |
| R98C | 40 |
| W134D | 89.2 |
| E4S | 68 |
| E89R | -0.0968 |
| Q31D | 9.19 |
| S59W | 35.7 |
| S171P | 2.07 |
| E131K | 100 |
| N114K | 26.4 |
| R69T | 84.9 |
| E89P | -19.7 |

Sample 2 — target: CCNB3, cyclin fold, Cln2 fusion (human); technique: yeast growth competition, sequencing; sample: yeast; setting: weak parent motif; relative to: not given; reading: higher = stronger binding
Starting sequence: RP1L1 docking peptide (human); TLGLGPLSFTLED; partner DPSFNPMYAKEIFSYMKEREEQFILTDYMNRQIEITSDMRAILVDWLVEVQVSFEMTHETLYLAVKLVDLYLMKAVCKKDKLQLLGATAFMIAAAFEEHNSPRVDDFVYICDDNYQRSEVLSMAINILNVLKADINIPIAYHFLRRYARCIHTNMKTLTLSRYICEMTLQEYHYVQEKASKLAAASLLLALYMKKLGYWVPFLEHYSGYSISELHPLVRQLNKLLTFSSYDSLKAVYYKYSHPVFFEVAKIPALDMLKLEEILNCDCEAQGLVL
| Substitution | normalised enrichment score |
| --- | --- |
| TLGAGPLSFTLED [L4A] | -0.195 |
| ALGLGPLSFTLED [T1A] | 0.0265 |
| TLGLGPLSATLED [F9A] | -0.0626 |
| TLGLGPLSFTLEA [D13A] | 0.0782 |
| TLALGPLSFTLED [G3A] | 0.00354 |
| TLGLGPLSFALED [T10A] | 0.229 |
| TAGLGPLSFTLED [L2A] | -0.259 |

Sample 3 — technique: RNAcompete; molecule type: RNA; sample: in vitro; concentration: 20 nM; setting: 7-mer, probes averaged, single round; relative to: mean of 7-mers; reading: higher = stronger binding
Target: PABPC1L2, full length, GST fusion (mouse, UniProt A0ABA7IW68)
Construct (chain): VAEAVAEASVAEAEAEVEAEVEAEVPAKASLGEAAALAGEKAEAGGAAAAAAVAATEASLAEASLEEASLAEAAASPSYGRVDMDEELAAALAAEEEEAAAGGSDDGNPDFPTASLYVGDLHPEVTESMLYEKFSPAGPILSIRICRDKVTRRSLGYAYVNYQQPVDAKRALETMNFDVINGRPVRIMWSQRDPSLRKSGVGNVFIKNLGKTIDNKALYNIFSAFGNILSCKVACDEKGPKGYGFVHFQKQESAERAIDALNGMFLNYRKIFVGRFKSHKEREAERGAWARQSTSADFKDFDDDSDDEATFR
| Oligonucleotide | 7-mer Z-score |
| --- | --- |
| CCAACAC | -0.242 |
| CCGUAUC | -0.414 |
| AUGUGGG | 0.548 |
| CUUCAAC | -0.324 |
| AGCCACU | -0.15 |
| ACUAUUC | -0.238 |
| AUUAGAA | 0.418 |
| CAGCCGA | -0.222 |
| CAAUUGG | 0.00254 |
| CUUCUCU | -0.351 |
| GAUAGCA | -0.0518 |
| CAACAAG | 0.0424 |
| GGACGGA | 0.517 |
| CUGAGGU | -0.15 |
| CGUAACC | -0.354 |
| AACAAUU | 0.447 |

Sample 4 — technique: RNA Bind-n-Seq; molecule type: RNA; sample: in vitro; concentration: 365 nM; relative to: no-protein control; reading: higher = stronger binding
Target: RNA binding protein fox-1 homolog 2, RRM domain, GST-SBP tag (RBFOX2, Homo sapiens, UniProt O43251-10, residues 100-194)
Setting: natural RNA segment, single round, ends assumed
Constant ends, left off below: GGGAGUUCUACAGUCCGACGAUC … UGGAAUUCUCGGGUGCCAA
Target sequence (chain): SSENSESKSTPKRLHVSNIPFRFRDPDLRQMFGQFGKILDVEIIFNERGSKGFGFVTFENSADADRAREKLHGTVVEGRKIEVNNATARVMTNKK
| Oligonucleotide | RBNS enrichment (R) |
| --- | --- |
| UGUUUUAUUGACAAUGCUAUUGAGUAUUACAGUGUCUAGAAUACCCUGGAUGGCUUCUCUUGUCCACCCGAUCUCCCGUGUUACCAAUGUGUAUGGUCUCCUUCUCCCGA | 0.916 |
| AUGUGUCCCCCAACUCCACCCCUCACAGUUUGGGCCUGUUUCUGGCAAAGAGUCAGGAAGGUUACUGAAUUAGGGAACAUUUUCUGCACCUUCUGAUUUUACUUAAGCAG | 0.286 |
| GAAGCAGGCUCUGCUUCUCUGUUGUUCCUGGUGGCUGGGCCUUAGCAGGGGUCUUUGCUCUUGAAGCCCAGGAUUGGGCAUGACCUGGUAGGAGCCUCUGUUCUUACCUA | 0.967 |
| GCAGAAAGAAUAUGGGCUCUGCAAUGAGACAGACCUGGAGGGGACUCUCCCGUUGAGCACUAGCAGCUGGAGGAGUUGGGAGUUCAUGGCUAUCAUGGUUGUGUUAAUCG | 0.907 |
| CUGUCAUCAGCCAGUGCUAACACCGGGCCAAUAAGAAUAUAACACCAAAUAACUGCUGGCUAGUUGGGGCUUUGUUUUGGUCUAGUGAAUAAAUACUGGUGUAUCCCCUG | 0.282 |
| GGAUUUACUAUAGGUGAAGAUAGCCCUCAUAUUCAAGGACAGAAGCUCUGGCAGGAGUAAAUUAGCAAAGCAGAAAUAGUACCCUUUCAUUCUUGGAGGUGCUUUGAAAU | 0.902 |
| AACAAACAGUACCAGUAUUUGAUCCAGUCUCAUCUCAGCUGUGUUAUACCUGGACAAUUUAGAUGUUUAUCAAAGGUCUUUUAUGGGGAAGAAAGCAAAUGUGUAAAACA | 0.857 |
| UCUAUUCCCCAGUGAACUGAGGUUUUUACCGAUUUAUAGAGCAGUCAAAUCCGAAGUGCUCGAGUGCUUAGAAACCCCCUCUGGUGCUUGGUUGAACAAGGGAAUCACAA | 0.269 |
| GGGAUUUUACAGAAGUCUCCUUGAAUUUGCCCUGCCUGGGGCAGUUUUGCAGAGGAACCUGCCAGAGAUUUAUUGGCUGGUCAGUCUCUUGUGAAAUAGUAUCAUGUGAG | 0.368 |
| CAGAGUAGUUUGGUUUUUAAAAUAUCUGGUGAUGUCAUUCUCUUGCUUAGAACACUAGCUUCCUGUUACGCUUCAUCUAAAAUGCAAAUUCUUACACCCAGCUUACGAGA | 4.72 |
| CAUUCUUCAGUGCCUCAUGACUGAAAACAAAAAACAAAAAAACGAAAGCAUCUUCACAAUGAAGCUUCCAGAUAGCACCGUUUUGCUAAAAGAUACAUUCUCAUUGUUUU | 0.312 |
| GCCCAAGUCUAGCUCUCCAGCAGAGCCACCCUCGGCUGGGGGCACCCACCUCACAGGCCACCUCAGUGGCGCCUGCCCACUGCGGGCUGGCUGCUCCUACCUACCUCGCC | 0.202 |

Sample 5 — technique: RNA Bind-n-Seq; molecule type: RNA; sample: in vitro; concentration: 200 nM; setting: whole 134-nt RNA, ends assumed; with: 150 mM KCl; relative to: input library; reading: higher = stronger binding
Target: Ras GTPase-activating protein-binding protein 1, full length (G3BP1, Homo sapiens, UniProt Q13283)
Sequence of UniProt Q13283 (whole entry, looked up): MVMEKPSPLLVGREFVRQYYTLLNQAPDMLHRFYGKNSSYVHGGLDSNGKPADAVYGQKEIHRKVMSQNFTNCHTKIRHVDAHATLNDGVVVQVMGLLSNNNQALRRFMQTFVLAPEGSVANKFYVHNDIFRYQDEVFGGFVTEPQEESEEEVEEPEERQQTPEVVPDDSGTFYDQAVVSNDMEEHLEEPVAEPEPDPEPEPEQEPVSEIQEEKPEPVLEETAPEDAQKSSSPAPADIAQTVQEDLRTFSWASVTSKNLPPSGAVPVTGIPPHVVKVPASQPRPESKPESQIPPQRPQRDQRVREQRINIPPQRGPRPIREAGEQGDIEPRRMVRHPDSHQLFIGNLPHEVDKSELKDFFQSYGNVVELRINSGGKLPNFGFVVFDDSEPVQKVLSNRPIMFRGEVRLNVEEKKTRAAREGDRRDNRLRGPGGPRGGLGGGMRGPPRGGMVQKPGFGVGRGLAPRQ
Constant ends, left off below: GGGAGUUCUACAGUCCGACGAUC … UGGAAUUCUCGGGUGUCAAGG
| Oligonucleotide | log2 enrichment |
| --- | --- |
| UGUGCUACACAUCGUAUGUACCGAAUCGGGGAAAAAAAGGGGAAAAAGGGGAAAAAAAGGGGAAAGUAUUAUGUUACGCCGUUCGGAUCU | -0.285 |
| UAACUUUAGAGGAGGAUCUGAUGGAUAUGGCAGUGGACAUGGAUUUGGGGAUGGCUAUAAUGGGUAUGGAGGAGGACCUGGAGGUGGCAA | 0.259 |
| ACCAUGCAGGUGGGCAUCUUUGGGAGGUGGGGCAAGGGGGGGAUAGGGAGGGGGGUAACACUUUGGGAACAGGUGGUCCCAGGUCGUUUC | 1.3 |
| GCAGGAAGUAAAAACAAAUGGAAAUGCUUCGGAUAGUGGCAGGGGUGGGGGUUGCUAAGGAAAGGGUGGGAUGGGAGCGGGUAAAGAGUU | 1.03 |
| CCUGUGCUACACAUCGUAUGUACCGAAUCGGGAAAAAAAGGAAAAAAAGGAAAAAAAGGGGAAAGUAUUAUGUUACGCCGUUCGGAUCUG | -0.857 |
| GGAUCAAAGCAAGUUGGAGAAACAUCAGCACCUGGAGACACCUUAGAUGGCACACCUCGUACUCUCAAUACUGUCUUUGAUUUCCCACCA | 0.923 |
| AAGUCCUGUGCUACACAUCGUAUGUACCGAAUCGGAAAAAAAGGAAAAAAAGGAGGAAAGUAUUAUGUUACGCCGUUCGGAUCUGCACUU | -1.1 |
| UGGUUAGUCAACUACUUUGGUUCCUUAUCAGUAGAAGACUCCCUAGAAUGUCUCAGAGCCAUGCUGUCUGCCAACAUCCGUCAGAAUCUG | -0.135 |
| GCAUAAUGGAUAUUUUUUAACUUGGCGAGAUGUGUCUCUCAAUCCUGUGGCUUUGGUGAGAGAGUGUGCAGAGAGCAAUGAUAGCAAAUA | 0.545 |
| CUCCAGAAAGCAGUGGGGCCUGAGAUCACCAAGACAGACCUGGUCCCUGCCUUCCAGAACCUGAUGAAAGACUGUGAGGCCGAGGUGAGG | 0.0205 |
| GCAGGAAGUAAAAACAAAUGGAGAUGCUUCGGAUAGUGGCAGGGGUGGGGGUUGCUAAGGAAAGGGUGGGAUGGGAGUGGGUAAAGAGUU | 1.25 |
| UAACUUUAGAGGAGGAUCUGAUGGAUAUGGCAGUGGACGUGGAUUUGGGGAUGGCUAUAAUGGGUAUGGAGGAGGACCUUGAGGUGGCAA | 0.157 |
| GUCCUGUGCUACACAUCGUAUGUACCGAAUCGGGGUUUUUGGUUUUUGGGUUUUUGGGAAAGUAUUAUGUUACGCCGUUCGGAUCUGCAC | -0.768 |
| AAGUCCUGUGCUACACAUCGUAUGUACCGAAUCGGGAAAGGGAGGGAAAAAAAGGGAAAGUAUUAUGUUACGCCGUUCGGAUCUGCACUU | 0.0015 |
